Measurements gathered from unrelated publications.
Lines come from different studies, so protocols differ. “And” joins repeats or separate records; there may be more than shown. Numbers after ± are the reported error.

| Compound | target | test | system | setting | scale | quantity | result |
| --- | --- | --- | --- | --- | --- | --- | --- |
| CC(C)C[C@H](NC(=O)OCc1ccccc1)C(=O)N[C@@H](C[C@@H]1CCNC1=O)C(O)S(=O)(=O)O (some centres unmarked) | Replicase polyprotein 1ab, main protease (rep, Severe acute respiratory syndrome-related coronavirus, UniProt P0C6X7) | thermal stability |  |  |  | ΔTm | 9.78 °C |
| CC[C@H](C)[C@@H]1NC(=O)[C@H](CCCNC(=N)N)NC(=O)[C@H](CO)NC(=O)[C@H](CCC(=O)O)NC(=O)[C@H](CC(=O)O)NC(=O)CNC(=O)CNC(=O)[C@H]([C@@H](C)O)NC(=O)[C@H](Cc2ccccc2)NC(=O)[C@H](CO)NC(=O)[C@H]([C@@H](C)O)NC(=O)[C@H](C)NC(=O)[C@@H]2CSSC[C@@H](C(=O)N[C@@H](Cc3ccc(O)cc3)C(=O)N[C@@H](Cc3ccccc3)C(=O)N[C@H](C(=O)N[C@H](C(=O)NCC(=O)O)[C@@H](C)O)[C@@H](C)O)NC(=O)[C@H]([C@@H](C)O)NC(=O)[C@H](CSSC[C@H](NC(=O)[C@H](CCC(=O)O)NC(=O)[C@H](CO)NC(=O)[C@H](CCCCN)NC(=O)[C@H](Cc3ccc(O)cc3)NC(=O)[C@@H]3CCCN3C(=O)[C@H](Cc3ccccc3)NC(=O)[C@H](CCCCN)NC(=O)[C@H](CCCNC(=N)N)NC(=O)[C@H](CCCCN)NC(=O)[C@H](CCCCN)NC(=O)[C@H](Cc3ccc(O)cc3)NC(=O)[C@@H]3CCCN3C(=O)[C@@H](NC(=O)[C@H](CC(=O)O)NC(=O)[C@H](CCCCN)NC(=O)[C@H](CCCCN)NC(=O)[C@@H](NC(=O)[C@@H](NC(=O)[C@@H](N)CCC(=O)O)C(C)C)[C@@H](C)CC)[C@@H](C)O)C(=O)N[C@@H](CC(C)C)C(=O)N[C@@H](CCCCN)C(=O)N[C@@H](C)C(=O)N2)NC(=O)[C@H](CCCCN)NC(=O)[C@H](Cc2ccccc2)NC(=O)[C@H](Cc2ccccc2)NC(=O)CNC(=O)[C@@H]2CCCN2C(=O)[C@H](CCCCN)NC(=O)CNC(=O)[C@H](CCC(=O)O)NC(=O)[C@H](CCC(N)=O)NC1=O | KCNQ4 (Homo sapiens, UniProt P56696, D288A) | potassium current, whole-cell patch clamp | HEK-293T |  |  | Hill slope | 1.76 ± 0.08 |
| CC(=O)NCCOCCOCCOCCn1cc(CNC(=O)c2cc(O[C@H]3O[C@H](CO)[C@H](O)[C@H](O)[C@H]3O)cc([N+](=O)[O-])c2)nn1 | ctxB (Vibrio cholerae, UniProt P01556) | binding |  |  | relative to: galactose | relative potency | 27 fold |
| CC(C)C[C@@H]1NC(=O)[C@H](CCCNC(=N)N)NC(=O)[C@@H]2CCCN2C(=O)[C@@H]2CSSC[C@H](NC(=O)CNC(=O)[C@@H]3CCCN3C(=O)[C@H](CCCCN)NC(=O)[C@H](CC(=O)O)NC(=O)[C@@H](NC(=O)CN)C(C)C)C(=O)N[C@@H](CCCNC(=N)N)C(=O)N[C@@H](Cc3ccc(O)cc3)C(=O)N[C@@H](CC(C)C)C(=O)N[C@@H](Cc3ccccc3)C(=O)NCC(=O)NCC(=O)N[C@H]3CSSC[C@H](NC(=O)CNC1=O)C(=O)N[C@@H](CCCCN)C(=O)NCC(=O)N[C@@H](CCCCN)C(=O)NCC(=O)N[C@@H](Cc1c[nH]cn1)C(=O)N[C@@H](CC(=O)O)C(=O)N[C@@H](Cc1ccc(O)cc1)C(=O)N[C@H](C(=O)N[C@@H](C)C(=O)N[C@@H](Cc1c[nH]c4ccccc14)C(=O)N[C@@H](CC(=O)O)C(=O)NCC(=O)N[C@H](C(=O)N[C@@H](Cc1ccccc1)C(=O)N[C@@H](CO)C(=O)N[C@@H](CC(=O)O)C(=O)O)[C@@H](C)O)CSSC[C@H](NC(=O)[C@H](CC(=O)O)NC(=O)[C@H](CC(=O)O)NC(=O)[C@H](CC(=O)O)NC(=O)[C@H](CO)NC(=O)[C@H](CCCCN)NC3=O)C(=O)N2 | SCN2A (Homo sapiens, UniProt Q99250) | sodium current, automated patch clamp | HEK293 | 1 µM, 50 ms depolarizing pulse | relative to: compound over control | inactivation time constant ratio | 1.05 ± 0.08 |
| Cc1ccc(N)cc1C(=O)N[C@H](C)c1ccc2c3c(cccc13)CC2 | Replicase polyprotein 1a, papain-like protease (Severe acute respiratory syndrome coronavirus 2, UniProt P0DTC1) | binding |  | 10 µM |  | thermal shift (ΔTm) | 3 °C and 4.2 °C and 3.2 °C |
| O=C(CCc1ccccc1)NOC(=O)OCc1ccccc1 | Replicase polyprotein 1ab, main protease (rep, Severe acute respiratory syndrome coronavirus 2, UniProt P0DTD1) | thermal shift |  | 20 µM, 2 h |  | melting temperature | 50.8 °C |
| CC(=O)N[C@@H](Cc1cn([C@@H]2O[C@H](CO)[C@H](O)[C@H](O)[C@H]2O)nn1)C(=O)NCC(=O)N[C@@H](C)C(=O)N[C@@H](CCCCN)C(=O)N[C@@H](C)C(=O)N[C@@H](CCCCN)C(=O)N1CCC[C@H]1C(=O)N[C@@H](CCCCN)C(=O)NCC(=O)N[C@@H](C)C(=O)N[C@@H](CCCCN)C(=O)N[C@@H](C)C(=O)N[C@@H](CCCCN)C(=O)N1CCC[C@H]1C(=O)N[C@@H](CCCCN)C(=O)NCC(=O)N[C@@H](C)C(=O)N[C@@H](CCCCN)C(=O)N[C@@H](C)C(=O)N[C@@H](CCCCN)C(=O)N1CCC[C@H]1C(=O)N[C@@H](CCCCN)C(=O)NCC(=O)N[C@@H](C)C(=O)N[C@@H](CCCCN)C(=O)N[C@@H](C)C(=O)N[C@@H](CCCCN)C(=O)N1CCC[C@H]1C(=O)N[C@@H](CCCCN)C(=O)NCC(=O)N[C@@H](C)C(=O)N[C@@H](CCCCN)C(=O)N[C@@H](C)C(=O)N[C@@H](CCCCN)C(=O)N1CCC[C@H]1C(=O)N[C@@H](Cc1cn([C@@H]2O[C@H](CO)[C@H](O)[C@H](O)[C@H]2O)nn1)C(=O)NCC(=O)NCC(=O)NCC(=O)NCC(N)=O | ctxB, pentamer (Vibrio cholerae, UniProt P01556) |  |  | concentration not given | relative to: galactose | inhibition potency | 15 fold |
| CC(C)(C)OC(=O)C[C@H](NC(=O)OCc1ccccc1)C(=O)CBr | Replicase polyprotein 1ab, main protease (rep, Severe acute respiratory syndrome-related coronavirus, UniProt P0C6X7) | covalent inhibitor |  | thioether formation |  | time to irreversible covalent complex | > 6 h |
| COc1ccc(/C=N/NC(=O)C(C)(C)Oc2ccc(Cl)cc2)c(C(=O)O)c1OC | uncharacterized protein (Candidatus Liberibacter solanacearum, UniProt A0A094YYW1) |  |  |  |  | kon | 106 M⁻¹ s⁻¹ |
| CC(C)(C(=O)N1CCC2(CC1)CC(CNS(C)(=O)=O)CCO2)c1ccccc1 (centres unmarked) | Polyprotein P1234, nsP2 (Chikungunya virus, UniProt Q8JUX6) | nsP2 ATPase activity, inhibitor, ADP-Glo |  | high micromolar |  | nsP2 ATPase inhibition | active |
| CCC1(CC)Cc2ccccc2-c2nc(NCCO)[nH]c(=O)c21 | Serum paraoxonase/arylesterase 1 (Pon1, Mus musculus, UniProt P52430) | enzyme activity, inhibitor |  | 15% mouse serum, added: paraoxon | relative to: mouse serum over purified PON1 | IC50 ratio | 30 fold |
| CC(C)C[C@H](NC(=O)CNC(=O)[C@H](Cc1ccccc1)NC(=O)[C@@H](NC(=O)[C@@H](N)[C@@H](C)O)C(C)C)C(=O)N[C@@H](CC(N)=O)C(=O)N[C@H](C(=O)N[C@@H](Cc1c[nH]c2ccccc12)C(=O)N[C@@H](CCCCN)C(=O)N[C@@H](CCCNC(=N)N)C(=O)N[C@@H](Cc1ccc(O)cc1)C(=O)N[C@@H](CO)C(=O)N[C@@H](CCCCN)C(=O)NCC(=O)N[C@@H](CCCCNc1ccc([N+](=O)[O-])cc1[N+](=O)[O-])C(N)=O)C(C)C | Spike glycoprotein, RBD (Severe acute respiratory syndrome coronavirus 2, UniProt P0DTC2) | binding |  |  |  | kon | 22400 to 24400 M⁻¹ s⁻¹ |
| CNC(C)C1C(O)CC2(C)C3CCC4C(C)(C)C(NC)CCC45CC35CCC12C (centres unmarked) | Spike glycoprotein (Severe acute respiratory syndrome coronavirus 2, UniProt P0DTC2) | binding |  |  |  | koff | 0.0291 s⁻¹ |
| O=C1SCCC1NC(C(=O)NCc1ccccc1)C1CC1 (centres unmarked) | TST (Homo sapiens, UniProt Q16762) | activator |  | 34.2 µM, versus potassium cyanide, added: sodium thiosulfate 60 mM |  | Vmax | 0.23 ± 0.01 mM/s |
